Measurements pooled from the literature.
Parts stem from different laboratories: compare values within a part only. Changes are numbered by the printed parent chain.

Study 1 — target: CCNA2, cyclin fold, Cln2 fusion (human); method: yeast growth competition, sequencing; matrix: yeast; setting: strong parent motif; reference: not given; direction: higher = stronger binding; endpoint: normalised enrichment score
Starting sequence: viral docking peptide; KGVKRKLFAEDSS; partner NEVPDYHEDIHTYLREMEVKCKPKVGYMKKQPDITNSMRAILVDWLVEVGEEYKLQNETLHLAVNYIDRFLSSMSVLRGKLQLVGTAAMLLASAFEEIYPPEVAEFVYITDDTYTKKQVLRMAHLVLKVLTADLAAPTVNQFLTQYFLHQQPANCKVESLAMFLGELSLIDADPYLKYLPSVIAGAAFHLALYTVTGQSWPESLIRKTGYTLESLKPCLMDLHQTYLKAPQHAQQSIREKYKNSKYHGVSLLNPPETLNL
Change = D11I; value = 5.87
Change = V3Q; value = 0.926
Change = D11R; value = 5.64
Change = R5A L7A; value = 0.229
Change = G2F; value = 6.17
Change = S12A; value = 6.43
Change = L7C; value = 0.874
Change = E10P; value = 6.26
Change = R5G; value = 0.268
Change = V3R; value = 1.69
Change = G2W; value = 5.54
Change = A9H; value = 5.92
Change = G2C; value = 6.77
Change = K4R; value = 7.18
Change = D11C; value = 6.15
Change = G2M; value = 6

Study 2 — method: RNAcompete; form: RNA; matrix: in vitro; concentration: 20 nM; setting: 7-mer, probes averaged, single round; reference: mean of 7-mers; direction: higher = stronger binding; endpoint: 7-mer Z-score
Target: PABPC1L2, full length, GST fusion (mouse, UniProt A0ABA7IW68)
Residues (chain): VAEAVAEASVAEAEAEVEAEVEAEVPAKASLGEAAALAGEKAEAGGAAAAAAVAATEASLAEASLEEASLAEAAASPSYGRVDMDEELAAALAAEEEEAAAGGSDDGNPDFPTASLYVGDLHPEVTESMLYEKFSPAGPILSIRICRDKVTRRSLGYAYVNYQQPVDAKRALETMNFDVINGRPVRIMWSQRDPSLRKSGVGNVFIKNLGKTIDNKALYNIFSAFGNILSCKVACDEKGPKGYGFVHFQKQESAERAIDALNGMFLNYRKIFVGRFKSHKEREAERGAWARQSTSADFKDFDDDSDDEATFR
Oligonucleotide = CCGGCAA; value = -0.217
Oligonucleotide = CUUCUUU; value = -0.199
Oligonucleotide = CGUAGCU; value = -0.38
Oligonucleotide = UGUCGCA; value = -0.333
Oligonucleotide = AAGGGGA; value = 0.751
Oligonucleotide = UGGUUGG; value = -0.151
Oligonucleotide = GCUUCUC; value = -0.403
Oligonucleotide = GGCUACU; value = -0.012

Study 3 — method: RNA Bind-n-Seq; form: RNA; matrix: in vitro; concentration: 20 nM; setting: 6-mer, flanks averaged, single round; with: 150 mM LiCl; reference: input library; direction: higher = stronger binding; endpoint: 6-mer enrichment (R)
Target: TAR DNA-binding protein 43, full length, His tag (TARDBP, Homo sapiens, UniProt Q13148, residues 1-414)
Oligonucleotide = AAGCUG; value = 0.887
Oligonucleotide = UCCCCG; value = 1.09
Oligonucleotide = UGUGCU; value = 1.22
Oligonucleotide = UAGAUG; value = 1
Oligonucleotide = CCACAG; value = 0.903
Oligonucleotide = AAGCGC; value = 0.908
Oligonucleotide = GAAAGC; value = 0.837
Oligonucleotide = GUAGGC; value = 1.03

Single results of other studies
Substance = PhoQ, residues 284 288 289 292 302 303 MLMVEA; target = PhoP, residues 12 14 15 18 19 NMSFL (Escherichia coli, UniProt P23836); test = Sort-seq, item: YFP reporter; test system = E. coli; setting = PhoQ-PhoP variant library, with: 10 µM Mg2+; scale = reference: high Mg2+ state, higher = stronger signaling; endpoint = fold induction; value = 8.35
